Measurements collected from several papers.
A part holds a random share of what one study measured. Changes are numbered by the printed parent chain.

Study 1 — technique: universal PBM; molecule type: double-stranded DNA, one strand shown; sample: in vitro; tested at: 600 nM; reading: higher = stronger binding; measurement: E-score
Target: Sal-like protein 4, full length isoform A (SALL4, Homo sapiens, UniProt Q9UJQ4, residues 1-1053)
UniProt Q9UJQ4, sequence (whole entry, looked up): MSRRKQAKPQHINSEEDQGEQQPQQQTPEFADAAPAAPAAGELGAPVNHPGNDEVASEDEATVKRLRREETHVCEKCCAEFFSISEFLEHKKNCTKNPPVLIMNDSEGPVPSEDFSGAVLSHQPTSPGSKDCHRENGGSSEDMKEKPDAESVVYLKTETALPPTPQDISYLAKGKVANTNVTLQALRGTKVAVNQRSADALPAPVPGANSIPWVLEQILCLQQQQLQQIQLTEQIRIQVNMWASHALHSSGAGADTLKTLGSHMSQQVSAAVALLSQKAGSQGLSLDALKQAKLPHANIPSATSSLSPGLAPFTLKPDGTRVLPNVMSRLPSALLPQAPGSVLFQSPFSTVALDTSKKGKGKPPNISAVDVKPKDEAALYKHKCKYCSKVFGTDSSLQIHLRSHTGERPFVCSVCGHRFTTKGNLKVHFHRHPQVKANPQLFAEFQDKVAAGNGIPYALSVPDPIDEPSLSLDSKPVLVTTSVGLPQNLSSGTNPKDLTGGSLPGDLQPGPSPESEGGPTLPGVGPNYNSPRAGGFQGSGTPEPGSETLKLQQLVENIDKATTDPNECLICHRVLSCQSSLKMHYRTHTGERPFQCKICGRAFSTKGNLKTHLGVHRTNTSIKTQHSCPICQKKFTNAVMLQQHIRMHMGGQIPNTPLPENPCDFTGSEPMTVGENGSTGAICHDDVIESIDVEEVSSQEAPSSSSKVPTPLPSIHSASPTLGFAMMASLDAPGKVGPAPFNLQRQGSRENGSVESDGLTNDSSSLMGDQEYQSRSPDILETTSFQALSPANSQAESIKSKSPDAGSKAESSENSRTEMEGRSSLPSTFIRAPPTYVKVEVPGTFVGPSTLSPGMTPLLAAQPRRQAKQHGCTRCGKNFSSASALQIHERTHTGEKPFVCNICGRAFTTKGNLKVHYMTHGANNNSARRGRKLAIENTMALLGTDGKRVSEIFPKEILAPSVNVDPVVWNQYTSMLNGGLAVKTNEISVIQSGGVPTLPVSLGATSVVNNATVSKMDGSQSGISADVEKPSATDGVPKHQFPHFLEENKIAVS
Notes: 8-mer, flanks averaged, mean of replicates
CGAGTCAG: -0.117
ACCAGGAC: -0.128
AACCTGCC: -0.239
AACGACGA: 0.0296
CAACCGCG: -0.18
CTCGCTTC: -0.21
GGGTGAAA: 0.0301
GGCTTCCA: -0.198

Study 2 — target: CCND3, cyclin fold, Cln2 fusion (human); technique: yeast growth competition, sequencing; sample: yeast; notes: weak parent motif; baseline: not given; reading: higher = stronger binding; measurement: normalised enrichment score; starting sequence: viral docking peptide; YKVKRRLVFGADD
YKVKRRLVKGADD [F9K]: 0.0428
YKVKRRLVFGYDD [A11Y]: 0.434
YKVKRRLVSGADD [F9S]: 0.0294
YKVKRRLVFMADD [G10M]: -0.0109
YKVKRRLFFGADD [V8F]: 0.632
YKVKRRLVWGADD [F9W]: 0.742

Study 3 — technique: RNA Bind-n-Seq; molecule type: RNA; sample: in vitro; tested at: 90 pmol; notes: 4-mer, random 30-nt RNA, single round; together with: 3 µM DMDA-PatA, 2 mM ADP, 2 mM phosphate; baseline: input library; reading: higher = stronger binding; measurement: 4-mer enrichment
Target: ATP-dependent RNA helicase DDX3X, helicase core (DDX3X, Homo sapiens, UniProt O00571, residues 132-607)
UniProt O00571, sequence (132-607, looked up): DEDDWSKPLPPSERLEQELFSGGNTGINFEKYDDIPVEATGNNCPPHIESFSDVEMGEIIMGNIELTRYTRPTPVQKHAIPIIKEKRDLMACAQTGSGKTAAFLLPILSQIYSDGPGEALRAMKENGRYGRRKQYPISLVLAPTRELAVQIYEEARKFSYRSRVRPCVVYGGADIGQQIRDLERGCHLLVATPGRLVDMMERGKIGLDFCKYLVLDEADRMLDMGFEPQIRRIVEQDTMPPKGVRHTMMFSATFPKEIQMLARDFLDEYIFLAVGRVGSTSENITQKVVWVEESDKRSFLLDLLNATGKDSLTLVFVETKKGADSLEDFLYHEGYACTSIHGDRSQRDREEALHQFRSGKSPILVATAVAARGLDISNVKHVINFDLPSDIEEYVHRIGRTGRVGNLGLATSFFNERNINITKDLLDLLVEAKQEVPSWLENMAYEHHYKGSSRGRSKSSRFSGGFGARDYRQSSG
GCCC: 1.02 fold
UGGG: 1.15 fold
CGAA: 1 fold
UUGA: 0.984 fold
ACGG: 0.935 fold
AAAG: 1.17 fold
CUGU: 0.823 fold
UGAC: 0.827 fold

Study 4 — target: UBE2A UBC core domain (UniProt P49459); technique: yeast two-hybrid; sample: yeast; notes: mostly zero background; baseline: not given; reading: higher = stronger interaction; measurement: lacZ reporter activity
UniProt P49459, sequence (whole entry, looked up): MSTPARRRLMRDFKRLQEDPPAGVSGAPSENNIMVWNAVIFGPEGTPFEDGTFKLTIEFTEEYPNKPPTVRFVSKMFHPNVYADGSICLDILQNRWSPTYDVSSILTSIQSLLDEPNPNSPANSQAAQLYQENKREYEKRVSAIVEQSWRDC
B1: MKRN3 RING domain (UniProt Q13064); chain FAVQRGMDKVCGICMEVVYEKANPNDRRFGILSNCNHSFCIRCIRRWRSARQFENRIVKSCPQCRVTSELVIPSE
B2: VPS8 RING domain (UniProt Q8N3P4); chain TRGLNPKQDYCSICLQQYKRRQEMADEIIVFSCGHLYHSFCLQNKECTVEFEGQTRWTCYKCSSSNKVGKLSE
B3: ZMYND11 RING domain (UniProt Q15326); chain DEIDWETENHDWYCFECHLPGEVLICDLCFRVYHSKCLSDEFRLRDSSSPWQCPVCRSIKKKNTNKQEM
B4: TRIM11 RING domain (UniProt Q96F44); chain LSTNLQEEATCAICLDYFTDPVMTDCGHNFCRECIRRCWGQPEGPYACPECRELSPQRNLRP
FDPPLESKYECPICLMALREAVQTPCGHRFCKACIIKSIRDAGHKCPVDNEILLENQLFP (TRAF6 RING domain (UniProt Q9Y4K3)): 0
B1 (MKRN3 RING domain): 0
B2 (VPS8 RING domain): 0
LVKDFNPYITCYICKGYLIKPTTVTECLHTFCKTCIVQHFEDSNDCPRCGNQVHETNPLE (PCGF5 RING domain (UniProt Q86SE9)): 0
B3 (ZMYND11 RING domain): 0
B4 (TRIM11 RING domain): 0

For quick reference, copied from above (study 2):
YKVKRRLVWGADD [F9W]: 0.742
YKVKRRLVFGYDD [A11Y]: 0.434
